Assay results collected from several papers.
Every numbered part comes from another study and shows a few of its results, in no order.
Sequence of UniProt Q9Y4K4 (whole entry, looked up): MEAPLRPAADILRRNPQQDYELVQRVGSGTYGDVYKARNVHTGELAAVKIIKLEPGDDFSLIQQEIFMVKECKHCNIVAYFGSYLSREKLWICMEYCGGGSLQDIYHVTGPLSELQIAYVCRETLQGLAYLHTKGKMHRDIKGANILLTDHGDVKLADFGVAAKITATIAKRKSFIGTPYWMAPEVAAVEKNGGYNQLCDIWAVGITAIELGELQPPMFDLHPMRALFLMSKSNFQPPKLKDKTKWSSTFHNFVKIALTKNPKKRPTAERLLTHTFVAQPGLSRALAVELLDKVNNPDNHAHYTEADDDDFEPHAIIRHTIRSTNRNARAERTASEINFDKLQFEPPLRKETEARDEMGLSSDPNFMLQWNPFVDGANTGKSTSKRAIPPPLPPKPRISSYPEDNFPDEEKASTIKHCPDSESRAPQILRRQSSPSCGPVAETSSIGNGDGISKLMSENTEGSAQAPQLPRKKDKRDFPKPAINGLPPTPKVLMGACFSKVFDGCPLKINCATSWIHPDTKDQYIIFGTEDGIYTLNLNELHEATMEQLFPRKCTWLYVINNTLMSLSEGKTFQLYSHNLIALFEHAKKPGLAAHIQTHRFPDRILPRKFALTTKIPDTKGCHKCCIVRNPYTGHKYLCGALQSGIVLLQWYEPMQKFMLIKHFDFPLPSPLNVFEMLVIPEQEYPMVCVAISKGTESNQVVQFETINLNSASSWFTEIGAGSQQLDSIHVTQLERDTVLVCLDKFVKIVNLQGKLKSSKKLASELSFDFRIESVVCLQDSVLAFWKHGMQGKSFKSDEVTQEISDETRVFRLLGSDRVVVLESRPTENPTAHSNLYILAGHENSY

Study 1 — method: RNA Bind-n-Seq; molecule type: RNA; matrix: in vitro; concentration: 20 nM; notes: 6-mer, flanks averaged, single round; with: 150 mM KCl; baseline: input library; direction: higher = stronger binding
Target: TAR DNA-binding protein 43, full length, His tag (TARDBP, Homo sapiens, UniProt Q13148, residues 1-414)
`CCUAUC`: “6-mer enrichment (R)” 0.574.
`UGUCGU`: “6-mer enrichment (R)” 0.757.
`UCUCGG`: “6-mer enrichment (R)” 0.854.
`UCUGGC` — result for “6-mer enrichment (R)”: 0.772.
`GCGGCA` — result for “6-mer enrichment (R)”: 1.65.
Under “6-mer enrichment (R)”, `GUGGUG` is recorded as 3.18.
For `GCCCCU`, “6-mer enrichment (R)” read 0.705.
`UCAUGC`: “6-mer enrichment (R)” 0.621.

Study 2 — method: protein binding microarray; molecule type: double-stranded DNA, one strand shown; matrix: in vitro; concentration: not given; baseline: not given; direction: higher = stronger binding
Target: Histone acetyltransferase KAT6A, both winged helices, GST fusion (KAT6A, Homo sapiens, UniProt Q92794, residues 1-181)
Notes: 8-mer, flanks averaged, mean of 2 arrays, mostly near background
Residues (chain): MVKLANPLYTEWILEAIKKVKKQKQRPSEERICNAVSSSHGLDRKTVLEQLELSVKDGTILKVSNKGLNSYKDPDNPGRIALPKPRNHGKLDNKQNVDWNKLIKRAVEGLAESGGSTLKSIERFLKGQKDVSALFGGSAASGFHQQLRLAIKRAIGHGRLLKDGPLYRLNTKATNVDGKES
The E-score of `GTGTAAAA` is reported as -0.113.
`TAGCGACA` gave an E-score of 0.0532.
For `CGCTGGCC`, the E-score was 0.13.
With `ACGAATGC` the E-score was 0.0143.
`GAAGTACA` has an E-score of -0.1.
With `ATAACTTA` the E-score was -0.123.
`TCTACTCA` gave an E-score of -0.0647.
With `TAGTATGA` the E-score was -0.132.

Study 3 — method: protein-binding microarray; molecule type: double-stranded DNA, one strand shown; matrix: in vitro; concentration: 2540 nM top; notes: 60-bp whole probe; with: salmon DNA 0.4 mg/ml; baseline: random background probes; direction: higher = stronger binding; constant ends, left off below: GCCTAGCAC … GTCTTGATTCGCTTGACGCTGCTG
Target: Interferon regulatory factor 3, full length, phosphomimetic (IRF3, Homo sapiens, UniProt Q14653, residues 1-427, S386D/S396D/S398D/S402D/T404D/S405D)
Construct (chain): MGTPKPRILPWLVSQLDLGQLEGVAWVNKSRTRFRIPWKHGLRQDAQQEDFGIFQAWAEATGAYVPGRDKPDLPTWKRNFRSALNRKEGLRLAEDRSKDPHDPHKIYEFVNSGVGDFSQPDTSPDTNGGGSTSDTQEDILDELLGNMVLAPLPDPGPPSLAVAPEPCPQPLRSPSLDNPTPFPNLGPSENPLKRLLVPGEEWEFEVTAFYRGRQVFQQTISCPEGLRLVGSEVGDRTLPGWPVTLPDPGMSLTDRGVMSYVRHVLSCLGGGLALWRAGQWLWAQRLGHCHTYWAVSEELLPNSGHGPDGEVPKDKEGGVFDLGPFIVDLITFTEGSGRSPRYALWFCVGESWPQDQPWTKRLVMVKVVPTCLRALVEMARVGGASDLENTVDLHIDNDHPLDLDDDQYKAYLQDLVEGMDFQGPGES
`TTAGAACTGCTTCTCCTTTAGTGCTAG`: “fitted relative affinity” -0.0843 z-score.
`GAGGGACTGGGGTATCGGGACGTGCTA` — result for “fitted relative affinity”: -0.691 z-score.
Under “fitted relative affinity”, `GAGGGTTTCGACACTGGGGACGTGCTA` is recorded as 1.32 z-score.
Under “fitted relative affinity”, `GACGGTATCGACTATGGGGACGTGCTA` is recorded as 0.44 z-score.
`TTTCCTATGTCATTTACATTGTGCTAG`: “fitted relative affinity” 4.95 z-score.
Under “fitted relative affinity”, `ACTCAGCTCCTCTTCCAGGCGTGCTAG` is recorded as 0.26 z-score.
`CTTGCTCTTGTTTTCACAGGGTGCTAG` — result for “fitted relative affinity”: 0.783 z-score.
For `TCAGTTTCGTATCTTCATTGTGTGCTA`, “fitted relative affinity” read 7.72 z-score.

Further values, each from its own experiment
`CN(C)C[C@H]1CCn2c(c(C3=C(c4cn(C)c5ccccc45)C(=O)NC3=O)c3ccccc32)C1` gave a remaining activity of 99.9% (Mitogen-activated protein kinase kinase kinase kinase 5 (MAP4K5, Homo sapiens, UniProt Q9Y4K4); enzyme activity, inhibitor; 0.5 µM; baseline: control).

Repeated from above (study 3):
For `TCAGTTTCGTATCTTCATTGTGTGCTA`, “fitted relative affinity” read 7.72 z-score.
